Assay results from different studies.
A part holds a random share of what one study measured. Substitutions count along the parent as printed.

Set 1 — technique: protein binding microarray; form: double-stranded DNA, one strand shown; medium: in vitro; tested at: not given; relative to: not given; direction: higher = stronger binding; endpoint: E-score
Target: Histone acetyltransferase KAT6A, both winged helices, GST fusion (KAT6A, Homo sapiens, UniProt Q92794, residues 1-181)
Setting: 8-mer, flanks averaged, mean of 2 arrays, mostly near background
Residues (chain): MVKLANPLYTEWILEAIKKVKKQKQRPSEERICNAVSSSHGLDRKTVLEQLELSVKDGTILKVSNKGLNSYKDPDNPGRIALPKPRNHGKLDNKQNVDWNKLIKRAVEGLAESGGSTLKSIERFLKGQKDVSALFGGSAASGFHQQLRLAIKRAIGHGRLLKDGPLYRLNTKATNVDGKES
Oligonucleotide = AGATGGAT; result = -0.125
Oligonucleotide = CCCGATTC; result = 0.0872
Oligonucleotide = AGGACTGC; result = -0.159
Oligonucleotide = ATCCACCC; result = -0.0785
Oligonucleotide = ACAACACT; result = -0.141
Oligonucleotide = GGAGACGA; result = 0.0423
Oligonucleotide = GGACGCCC; result = 0.0831
Oligonucleotide = ACAGGCGA; result = -0.062
Oligonucleotide = AAGTCCCA; result = -0.183

Set 2 — technique: RNA Bind-n-Seq; form: RNA; medium: in vitro; tested at: 200 nM; setting: whole 134-nt RNA, ends assumed; with: 150 mM KCl; relative to: input library; direction: higher = stronger binding; endpoint: log2 enrichment
Target: Fragile X messenger ribonucleoprotein 1, C-terminal low-complexity region (Fmr1, Mus musculus, UniProt P35922)
Shared flanks, not repeated: GGGAGUUCUACAGUCCGACGAUC … UGGAAUUCUCGGGUGUCAAGG
Oligonucleotide = AGUCCUGUGCUACACAUCGUAUGUACCGAAUCGGGGAAAGGGGAAAGGGGAAAGGGGAAAGUAUUAUGUUACGCCGUUCGGAUCUGCACU; result = 0.285
Oligonucleotide = CAAGUCCUGUGCUACACAUCGUAUGUACCGAAUCGGGAAAAAAAGGGAGGGAGGGAAAGUAUUAUGUUACGCCGUUCGGAUCUGCACUUC; result = 0.805
Oligonucleotide = AAGUCCUGUGCUACACAUCGUAUGUACCGAAUCGGGCCCCCGGCCCCCGGCCCCCGGAAAGUAUUAUGUUACGCCGUUCGGAUCUGCACU; result = -0.218
Oligonucleotide = CUCAAGUCCUGUGCUACACAUCGUAUGUACCGAAUCGGUUUGGUUUGGUUUGGAAAGUAUUAUGUUACGCCGUUCGGAUCUGCACUUCCA; result = -0.303
Oligonucleotide = GCAGGAAGUAAAAACAAAUGGAAAUGCUUCGGAUAGUGGCAGGGGUGGGGGUUGCUAAGGAAAGGGGGGGAUGGGAGUGGGUAAAGAGUU; result = -0.0333
Oligonucleotide = UCAAGUCCUGUGCUACACAUCGUAUGUACCGAAUCGGAAAGGGAAAGGGAAAGGAAAGUAUUAUGUUACGCCGUUCGGAUCUGCACUUCC; result = -0.357
Oligonucleotide = ACCAUGCAGGUGGGCAUCUUUGGGCAGUGGGGCAAGGGGGGGAUAGGGAGGGGGGUAACACUUUGGGAACAGGUGGUCCCAGGUCGUUUC; result = 0.864

Set 3 — technique: DHFR PCA, deep sequencing; medium: yeast; with: (+)-ABA 0 µM; relative to: wild-type fitted maximum; direction: higher = stronger binding; endpoint: relative binding score
Target: ABI1, truncated, D143A, DHFR fusion (Arabidopsis thaliana)
Setting: methotrexate growth selection, single substitutions
Parent: PYL1, truncated, DHFR fusion (Arabidopsis thaliana); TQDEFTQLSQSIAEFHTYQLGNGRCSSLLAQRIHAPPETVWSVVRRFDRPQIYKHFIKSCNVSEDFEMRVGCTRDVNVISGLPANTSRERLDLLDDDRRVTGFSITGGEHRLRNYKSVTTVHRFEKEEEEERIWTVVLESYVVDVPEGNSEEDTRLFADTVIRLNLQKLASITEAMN; partner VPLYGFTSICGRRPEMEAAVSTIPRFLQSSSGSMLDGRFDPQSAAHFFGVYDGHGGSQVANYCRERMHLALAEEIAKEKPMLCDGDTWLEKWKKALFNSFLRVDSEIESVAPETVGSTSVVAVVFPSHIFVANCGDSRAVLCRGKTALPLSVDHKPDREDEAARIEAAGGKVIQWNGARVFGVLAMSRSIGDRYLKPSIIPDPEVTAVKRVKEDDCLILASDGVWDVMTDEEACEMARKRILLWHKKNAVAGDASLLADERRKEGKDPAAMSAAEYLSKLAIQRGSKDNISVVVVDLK
Substitution = N149P; result = 11.5%
Substitution = V161E; result = -2.71%
Substitution = G21Y; result = 6.59%
Substitution = Y141I; result = -1.83%
Substitution = V118H; result = 12.4%
Substitution = L8H; result = -14.5%

Further values, each from its own experiment
Molecule = PhoQ, residues 284 288 289 292 302 303 AAQSYM; target = PhoP, residues 12 14 15 18 19 NHFRA (Escherichia coli, UniProt P23836); test = Sort-seq, refers to: YFP reporter; test system = E. coli; conditions = PhoQ-PhoP variant library, with: 10 µM Mg2+; how to read = relative to: high Mg2+ state, higher = stronger signaling; endpoint = fold induction; result = 3.32

A few entries again (set 1):
Oligonucleotide = ATCCACCC; result = -0.0785
Oligonucleotide = AAGTCCCA; result = -0.183
